Results gathered from unrelated publications.
Lines come from different studies, so protocols differ. Numbers after ± are the reported error.
Glucagon-like peptide 1 receptor: Glucagon-like peptide 1 receptor (Rattus norvegicus, UniProt P32301)
PPO3: PPO3 (Agaricus bisporus, UniProt C7FF04)
T1: DNA G4 bcl-2 G-quadruplex (Homo sapiens); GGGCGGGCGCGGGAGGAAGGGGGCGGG
T2: DNA hairpin, hairpin, TTTT loop; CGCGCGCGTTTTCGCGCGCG

`CCCC[C@H](NC(=O)CNC(=O)[C@@H]1CCCN1C(=O)CNC(=O)[C@@H]1CCCN1C(=O)CNC(=O)[C@@H]1CCCN1C(=O)CNC(=O)[C@@H]1CCCN1C(=O)CNC(=O)[C@@H]1CCCN1C(=O)CNC(=O)[C@@H]1CCCN1C(=O)CNC(=O)[C@@H]1CCCN1C(=O)CNC(=O)[C@@H]1CCCN1C(=O)CNC(=O)[C@@H]1CCCN1C(=O)CNC(=O)[C@@H]1CCCN1C(=O)CNC(=O)[C@@H]1CCCN1C(=O)CNC(=O)[C@@H]1CCCN1C(=O)[C@H](Cc1c[nH]c2ccccc12)NC(=O)[C@H](CCCNC(=N)N)NC(=O)[C@@H](Cc1ccccc1)NC(=O)[C@H](Cc1c[nH]cn1)NC(=O)[C@H](CCC(=O)O)NC(=O)[C@H](CCCC)NC(=O)[C@H](CO)NC(C)=O)C(=O)NCC(=O)N[C@@H](Cc1c[nH]c2ccccc12)C(=O)N[C@@H](CCCC)C(=O)N[C@@H](CC(=O)O)C(=O)N[C@@H](Cc1ccccc1)C(N)=O` gave an IC50 ratio of 7 fold (CCKBR/MC4R (Homo sapiens, UniProt P32239+P32245); bivalent binding; cells expressing CCK2R and MC4R; added: Eu-DTPA-CCK-8; baseline: single- over dual-expressing cells).
`CCCC[C@H](NC(C)=O)C(=O)N[C@@H](CO)C(=O)N[C@H](C(=O)N1CCC[C@H]1C(=O)N[C@]1(C)CCCCCCC=CCCC[C@@](C)(C(=O)N[C@@H](Cc2ccccc2)C(=O)N[C@@H](CCCCN)C(=O)N[C@@H](CCCNC(=N)N)C(=O)N[C@@H](CC(C)C)C(=O)N[C@@H](CCC(N)=O)C(N)=O)NC(=O)[C@H](CCCNC(=N)N)NC(=O)[C@H](CCCC)NC(=O)[C@H](CC(C)C)NC(=O)[C@H](CCCNC(=N)N)NC(=O)[C@H](CCCNC(=N)N)NC(=O)[C@H](CCCNC(=N)N)NC1=O)[C@@H](C)O`: “UBA1-ubiquitin thioester formation” “no effect” (UBA1 (Homo sapiens, UniProt P22314); inhibitor).
For `CC[C@H](C)[C@H](NC(=O)[C@H](Cc1ccccc1)NC(=O)[C@H](CCC(=O)O)NC(=O)[C@H](CCCCN)NC(=O)[C@H](C)NC(=O)[C@H](C)NC(=O)[C@H](CCC(N)=O)NC(=O)CNC(=O)[C@H](CCC(=O)O)NC(=O)[C@H](CC(C)C)NC(=O)[C@H](Cc1ccc(O)cc1)NC(=O)[C@H](CO)NC(=O)[C@H](CO)NC(=O)[C@@H](NC(=O)[C@H](CC(=O)O)NC(=O)[C@H](CO)NC(=O)[C@@H](NC(=O)[C@H](Cc1ccccc1)NC(=O)[C@@H](NC(=O)CNC(=O)[C@@H](N)CCC(=O)O)[C@@H](C)O)[C@@H](C)O)C(C)C)C(=O)N[C@@H](C)C(=O)N[C@@H](Cc1c[nH]c2ccccc12)C(=O)N[C@@H](CC(C)C)C(=O)N[C@H](C(=O)N[C@@H](CCCCN)C(=O)NCC(=O)N[C@@H](CCCNC(=N)N)C(N)=O)C(C)C`, cAMP accumulation read “inactive” (Glucagon-like peptide 1 receptor; agonist; INS-1E; concentration not given, compound alone).
The remaining activity of `CC(C)C[C@H](NC(=O)[C@H](CC(C)C)NC(=O)[C@H](CCC(=O)O)NC(=O)[C@@H](N)CS)C(=O)O` is reported as 80.4% (PPO3; enzyme activity, inhibitor; 25 µM).
For `CC(=O)Oc1cc(-c2coc3cc(OC(C)=O)c(OC(C)=O)c(OC(C)=O)c3c2=O)cc(OC(C)=O)c1OC(C)=O`, “Hill coefficient on kcat” read 0.9 ± 0.1 (Ribonuclease P protein component (rnpA, Bacillus subtilis, UniProt P25814); enzyme activity, inhibitor; 37 °C, added: Fl-pre-tRNA^Asp).
`Nc1cc(Oc2ccc(-c3ccccc3)cc2)nn1S(=O)(=O)c1ccc(Oc2ccccc2)cc1` — result for “protein mass shift”: 0 Da (Genome polyprotein, NS2B-NS3 protease (dengue virus type 2, UniProt P29990); ESI-TOF MS; 20 µM, 1 h, 25 °C; baseline: DMSO control).
With `COc1ccccc1-c1cc(C(F)(F)F)nc(S(=O)(=O)CCCC(=O)Nc2ccc(F)cc2F)n1` the efficacy increase was 105% (Glucagon-like peptide 1 receptor; cAMP accumulation, positive allosteric modulator; INS-1 832/13; 25 µM, added: GLP-1(9-36)).
For `CC1=C(/C=C/C(C)=C/C=C/C(C)=C/C=C/C=O)C(C)(C)CCC1`, the Hill coefficient was 2.5 (CNGA1 (Bos taurus, UniProt Q00194); cGMP-activated current, inhibitor, inside-out patch clamp; Xenopus oocytes; +100 mV, added: 2 mM cGMP).
`CC1=N/C(=C\c2cc3cc4c5c(c3oc2=O)CCCN5CCC4)C(=O)N1C` gave a Kd of 2.59 µM (T1, DNA G4 bcl-2 G-quadruplex (Homo sapiens); fluorescence titration; pH 7.4, K+ 100 mM).
For `NS(=O)(=O)c1ccc(N2N=C(C(F)(F)F)CC2c2ccc(F)cc2F)cc1` (centres unmarked), the IC80 was 100 µM (Prostaglandin G/H synthase 1 (Canis lupus familiaris, UniProt Q8HZR1); TXB2 formation, inhibitor; clotting dog whole blood; 1 h, 37 °C).
`C[C@@]12CC[C@@H]3c4cc(Br)c(O)c(Br)c4CC[C@H]3[C@@H]1CCC2=O` gave an inhibition of 88.7% (AKR1C1 (Homo sapiens, UniProt Q04828); enzyme activity, inhibitor, absorbance; 100 µM, pH 9).
With `CSCC[C@H](NC(=O)[C@H](CCCNC(=N)N)NC(=O)[C@H](CCSC)NC(=O)[C@H](CCC(N)=O)NC(=O)[C@H](CO)NC(=O)[C@@H](NC(=O)[C@@H]1CCCN1)C(C)C)C(=O)N[C@@H](C)C(=O)N[C@H](C(=O)N1CCC[C@H]1C(=O)N[C@@H](CC(C)C)C(=O)N[C@@H](CC(C)C)C(=O)N[C@@H](CC(=O)O)C(=O)N[C@@H](CCCNC(=N)N)C(=O)N1CCC[C@H]1C(=O)O)[C@@H](C)O` the dissociation half-life was ~23 h (MHC class II I-A g7 (Mus musculus, UniProt P04228+Q31135); peptide-MHC complex stability, peptide dissociation; pH 5.0, loaded 1 µM, 18 h, 37 °C, added: 100 µM mouse serum albumin peptide).
With `CC(C)C[C@H](NC(=O)CNC(=O)[C@H](CC(C)C)NC(=O)[C@@H]1CCCN1)C(=O)N[C@@H](CCCNC(=N)N)C(=O)N[C@@H](CO)C(=O)N[C@@H](CCCCN)C(=O)O` the hydrolysis product was 84% (MMP9 (Homo sapiens, UniProt P14780); substrate, HPLC; 500 µM, 72 h, pH 7.5, 37 °C).
For `CC1=C(/C=C/C(C)=C\C=C\C(C)=C\C=O)C(C)(C)CCC1`, the melting temperature was 70.5 °C (Rhodopsin, apoprotein (opsin) (RHO, Bos taurus, UniProt P02699); regenerated pigment stability, thermal shift, BFC probe; ROS disk membranes).
`CC(C)CCC[C@@H](C)[C@H]1CC[C@H]2[C@@H]3CC=C4C[C@@H](OS(=O)(=O)O)CC[C@]4(C)[C@H]3CC[C@]12C` gave a maximal inhibition of 87.5 ± 3.1% (Prothrombin (F2, Homo sapiens, UniProt P00734); enzyme activity, inhibitor; added: unfractionated heparin 250 µM).
`NC(=O)C[C@H](NC(=O)[C@H](CC(N)=O)NC(=O)[C@H](CCC(=O)O)NC(=O)[C@@H](N)CS)C(=O)O` gave a remaining activity of 79.5% (PPO3; enzyme activity, inhibitor; 50 µM).
With `O=c1ccn([C@@H]2C[C@@H](O)[C@H](COP(=O)(O)O)O2)c(=O)[nH]1` the relative Vmax was 0.28 ± 0.02% (UMP-CMP kinase (Homo sapiens, UniProt P30085); enzyme activity, substrate, coupled spectrophotometric; baseline: D-CMP).
`COc1cc(F)c(C(C)C)cc1C1=C(CN2C(=O)O[C@H](c3cc(C(F)(F)F)cc(C(F)(F)F)c3)[C@@H]2C)CC(C)(C)CC1`: “time of maximum inhibition” 8.3 h (Cholesteryl ester transfer protein (Homo sapiens, UniProt P11597); enzyme activity; healthy male subjects, plasma; oral, 100 mg single dose).
Under “turnover rate increase”, `O=C(O)Cc1ccc(O)cc1` is recorded as ~12 fold (p-hydroxyphenylacetate 3-hydroxylase, reductase component (C1-hpah, Acinetobacter baumannii, UniProt Q6Q271); NADH oxidation, activator; 100 µM, pH 7, added: 50 µM NADH).
For `CC(C)CC(NC(=O)C(NC(=O)NC(C(=O)O)C(C)C)C1CCNC(=N)N1)C(=O)NCCCNC(C(=O)O)C(OC1OC(CN)C(O)C1O)C1OC(n2ccc(=O)[nH]c2=O)C(O)C1O` (centres unmarked), the ΔS was -3.3 ± 1.7 cal/mol/K (mraY (Aquifex aeolicus, UniProt O66465, T75A); ITC; T75A mutant).
`CCOC(=O)[C@H](CCCNC(N)=O)NC(=O)[C@H](Cc1c[nH]c2ccccc12)NC(=O)[C@@H]1CCCCN1C(=O)[C@H](Cc1ccccc1)N(C)C(=O)CCl`: “concentration for maximal engagement” 10 µM (PIN1 (Homo sapiens, UniProt Q13526); PaTu 8988t; 5 h, added: BJP-DTB probe).
`[Ru+2].[Ru+2].c1cnc2c(c1)c1nc(-c3ccc(OCCOCCOCCOc4ccc(-c5nc6c7cccnc7c7ncccc7c6[nH]5)cc4)cc3)[nH]c1c1cccnc12.c1cnc2c(c1)ccc1cccnc12.c1cnc2c(c1)ccc1cccnc12.c1cnc2c(c1)ccc1cccnc12.c1cnc2c(c1)ccc1cccnc12` has a Kd of 1.2 µM (T2, DNA hairpin, hairpin, TTTT loop; BLI; pH 7.04, Na+ 100 mM).
`CCN(CC)C(=O)c1ccc(O)c(OC)c1` — result for “bound ligand fraction”: 0.36 mol % (Heat shock protein HSP 90-alpha, N-terminal domain (HSP90AA1, Homo sapiens, UniProt P07900); binding, ligand-observed NMR titration; ligand to protein ratio 202).
The specific activity of `CCCCCCCC(=O)Nc1ccc(OC)nc1C` is reported as 6 pmol/min/µg (Carboxylesterase 3 (CES3, Homo sapiens, UniProt Q6UWW8); substrate; 50 µM, pH 8, 37 °C, enzyme purity 3%).
`CN(C)CC(=O)N(c1ccc(F)cc1)c1ccc(F)cc1` gave an EC200 of > 30 µM (Proteasome subunit alpha type-2/Proteasome subunit alpha type-6, 20S proteasome (Homo sapiens, UniProt P25787+P60900); proteolysis, activator, fluorogenic peptide; purified 20S proteasome; added: Suc-LLVY-AMC, Z-LLE-AMC, Boc-LRR-AMC).
With `O=c1cnnc(Nc2ccc(O)cc2)[nH]1` the signal attenuation was 33.4 ± 4.7% (DNA dC->dU-editing enzyme APOBEC-3B, C-terminal domain (Homo sapiens, UniProt Q9UH17); binding, 1H CPMG NMR; 20 µM protein).
`CC[C@H](C)[C@H](NC(=O)[C@H](CCC(=O)O)NC(=O)[C@H](CC(=O)O)NC(=O)[C@H](CC(C)C)NC(=O)[C@@H](NC(=O)[C@H](CCCCN)NC(=O)[C@H](CCCCN)NC(=O)[C@@H](NC(=O)[C@H](CCC(=O)O)NC(=O)[C@H](CCC(=O)O)NC(=O)[C@H](CCC(=O)O)NC(=O)[C@H](CO)NC(=O)[C@H](CC(C)C)NC(=O)[C@H](CC(=O)O)NC(=O)[C@H](CC(C)C)NC(=O)CNC(=O)[C@H](CCCNC(=N)N)NC(=O)[C@H](CC(C)C)NC(=O)[C@H](CO)NC(=O)CNC(=O)CNC(=O)CNC(=O)CCCC[C@@H]1SC[C@@H]2NC(=O)N[C@@H]21)C(C)C)[C@@H](C)CC)C(=O)N[C@@H](C)C(=O)N[C@@H](CCCCN)C(=O)N[C@@H](CC(=O)O)C(=O)O` has a Kd ratio of 2.1 (Fab B11 antibody (human); binding, biolayer interferometry; baseline: alanine mutant over wild type).
The SUVmax of `O=C([O-])CN1CCN(CC(=O)[O-])CCN(C(CCC(=O)NCCCCCN(CCCC[C@H](NC(=O)N[C@@H](CCC(=O)O)C(=O)O)C(=O)O)C(=O)c2ccc(I)cc2)C(=O)O)CCN(CC(=O)[O-])CC1.[68Ga+3]` (some centres unmarked) is reported as 18.3 ± 16.2 (FOLH1 (Homo sapiens, UniProt Q04609); PET/CT; prostate cancer patients, primary prostate lesions; 60 min post-injection).
For `Cc1cc(N2CC[C@](C#N)(C3(C)CC3)C2=O)cc(C(=O)NCc2cc(F)cc(-c3cnn(C)c3)c2)n1`, the melting temperature was 69 °C (Proline--tRNA ligase (Plasmodium falciparum, UniProt Q8I5R7); thermal shift; added: L-proline 2 mM).

Some of these lines once more:
For `NS(=O)(=O)c1ccc(N2N=C(C(F)(F)F)CC2c2ccc(F)cc2F)cc1` (centres unmarked), the IC80 was 100 µM (Prostaglandin G/H synthase 1 (Canis lupus familiaris, UniProt Q8HZR1); TXB2 formation, inhibitor; clotting dog whole blood; 1 h, 37 °C).
`C[C@@]12CC[C@@H]3c4cc(Br)c(O)c(Br)c4CC[C@H]3[C@@H]1CCC2=O` gave an inhibition of 88.7% (AKR1C1 (Homo sapiens, UniProt Q04828); enzyme activity, inhibitor, absorbance; 100 µM, pH 9).
With `CSCC[C@H](NC(=O)[C@H](CCCNC(=N)N)NC(=O)[C@H](CCSC)NC(=O)[C@H](CCC(N)=O)NC(=O)[C@H](CO)NC(=O)[C@@H](NC(=O)[C@@H]1CCCN1)C(C)C)C(=O)N[C@@H](C)C(=O)N[C@H](C(=O)N1CCC[C@H]1C(=O)N[C@@H](CC(C)C)C(=O)N[C@@H](CC(C)C)C(=O)N[C@@H](CC(=O)O)C(=O)N[C@@H](CCCNC(=N)N)C(=O)N1CCC[C@H]1C(=O)O)[C@@H](C)O` the dissociation half-life was ~23 h (MHC class II I-A g7 (Mus musculus, UniProt P04228+Q31135); peptide-MHC complex stability, peptide dissociation; pH 5.0, loaded 1 µM, 18 h, 37 °C, added: 100 µM mouse serum albumin peptide).
With `CC(C)C[C@H](NC(=O)CNC(=O)[C@H](CC(C)C)NC(=O)[C@@H]1CCCN1)C(=O)N[C@@H](CCCNC(=N)N)C(=O)N[C@@H](CO)C(=O)N[C@@H](CCCCN)C(=O)O` the hydrolysis product was 84% (MMP9 (Homo sapiens, UniProt P14780); substrate, HPLC; 500 µM, 72 h, pH 7.5, 37 °C).
